Assay results of several laboratories.
Values joined by “and” are separate records of one study, mostly repeats; a detail may differ. Numbers after ± are the reported error.

SMILES | test | test system | setting | how to read | endpoint | value
O=C1O[C@H]([C@@H](O)CO)C(O)=C1O | nitric oxide scavenging | – | 200 µM | – | inhibition | 63.7%
N#Cc1ccc2c(-c3ccncc3)c(-c3ccc(F)cc3)nn2c1 | kinase binding, competitor, MIB/MS competition, refers to: GIN4 | Candida albicans cell lysate | 1 µM | baseline: DMSO | log2 fold change | -0.0218
C[C@H](Oc1ccc(Br)cc1-c1ccon1)C(=O)O | muscle velocity recovery cycle | human, tibialis anterior muscle | 200 mg once daily, first response latency at 15 Hz, multiple ascending dose | – | difference from placebo | 1.04%
CN[C@@H]1COc2c(S(=O)(=O)NC(=O)Nc3c4c(cc5c3CCC5)CCC4)cnn2C1 | refers to: IL-18 | human participants, whole blood ex vivo | 150 mg single dose, 72 h, IL-18, circulating, adjusted for, with: LPS/ATP | baseline: baseline | inhibition | -4.2%
CO[C@H]1C[C@@H]2CC[C@@H](C)[C@@](O)(O2)C(=O)C(=O)N2CCCC[C@H]2C(=O)O[C@H]([C@H](C)C[C@@H]2CC[C@@H](OC(=O)NCCOCCOCCOCCOCCOCCOCCOCCOCCC(=O)N3CCc4cc(Cn5nc(-c6ccc7oc(N)nc7c6)c6c(N)ncnc65)ccc4C3)[C@H](OC)C2)C[C@@H](O)[C@H](C)/C=C(\C)[C@@H](O)[C@@H](OC)C(=O)[C@H](C)C[C@H](C)/C=C/C=C/C=C/1C | refers to: 4EBP1 phospho-Thr37/46 | mouse, HCC1954 xenograft, tumour | 1 to 3 mg/kg, weekly, end of dosing interval | – | p4EBP1 level | decreased
CCO[C@H]1CCN(Cc2c(OC)cc(C)c3[nH]ccc23)[C@H](c2ccc(C(=O)O)cc2)C1 | – | PNH patients, blood | oral, 25 mg then 100 mg, week 4, mean percent change | baseline: baseline | C3d-positive type III RBCs | -52.5%
CCCCCN1C[C@H](O)[C@@H](O)[C@H](O)[C@@H]1CO | RNA sequencing, refers to: Hallmark apoptosis genes | Hexb-/- mouse, hippocampus | 30 mg/kg/day | direction not given | genomic disease score | 0.57
Cc1noc(C)c1-c1cc(C(O)(c2ccccn2)c2ccccn2)c2nc(C3CC3)[nH]c2c1 | refers to: CCR2 expression | human, peripheral blood | 4 mg, day 8, 1604 study | – | maximum inhibition | 46%
CC(=O)Oc1cc2c(s1)CCN(C(C(=O)C1CC1)c1ccccc1F)C2 (centres unmarked) | platelet aggregation, light transmittance aggregometry | human, platelet-rich plasma | 4 to 6 h, IPA above 90 %, with: ADP 20 µM | baseline: patients | patients with IPA above threshold | 4.8%
NCC(=O)Nc1cncc(-c2nn3c(=O)cc(N4CCNCC4)nc3s2)c1 | ADP-induced platelet aggregation, light transmission aggregometry | human, stable CAD on aspirin, ex vivo platelets | subcutaneous, 0.04 mg/kg, 90 min post-dose, median value, with: ADP 20 µM | – | inhibition | 6.8%
CCCCC1(CCCC)CN(c2ccccc2)c2cc(SC)c(OCC(=O)N[C@@H](C(=O)NCC(=O)O)c3ccccc3)cc2S(=O)(=O)C1 | refers to: 7α-hydroxy-4-cholesten-3-one | human, plasma | 2.5 mg once daily, day 13 | – | plasma C4 | 31.4 ng/mL
Cc1cc(-c2nc(C(=O)Nc3cc4oc(N5CCOCC5)nc4nc3N3CC[C@@H](O)C3)co2)ccn1 | – | mouse, B16-F10 melanoma brain metastasis | 100 mg/kg, day 12, treatment day 7 | – | brain tumour burden | decreased
CN(C)C(=O)Nc1cccc(-c2ccc(N(C)C)cc2)c1 | – | mouse high-fat diet | dose not given | – | plasma free fatty acids | 0.488 mmol/L and 0.445 mmol/L and 0.325 mmol/L and 0.402 mmol/L and 0.427 mmol/L and 0.366 mmol/L
NC(=O)c1cnc2[nH]ccc2c1N[C@@H]1[C@@H]2CC3C[C@H]1C[C@@](O)(C3)C2 | flow cytometry, refers to: CD4+ central memory T cells | Japanese healthy subjects, peripheral blood | oral, 30 mg twice daily, day 4 | – | change from baseline | -1.07%
Nc1nc2c(ncn2[C@@H]2O[C@H](COP(=O)(O)OP(=O)(O)OP(=O)(O)O)[C@@H](O)[C@H]2O)c(=O)[nH]1 | binding, MIDAS equilibrium dialysis LC-MS | A2AR-BRIL thermostabilized | concentration not given | baseline: no-protein control | log2 fold change | -0.886
Cn1cc([C@H]2C[C@H]3CSC(N)=N[C@@]3(c3ccc(F)cc3F)CO2)cn1 | refers to: Aβx-42 | Mus musculus wild-type, brain | subcutaneous, 10 mg/kg, 9 h | – | Aβ42 level | 0.59 ng/g
Cc1cnc(N2CC3(CCOCC3)C2)c(C(=O)Nc2ccc(C(=O)N3CCc4cc(C(=O)Nc5c(C)cccc5F)sc4-c4ccccc43)cc2)c1 | refers to: LDH | human RSV infection, nasal wash | dose not given, AUC, ITT-IS population | baseline: placebo | inhibition | -0.3%
N[C@H](C(=O)O)c1cc(O)cc(O)c1 | field recording | rat hippocampal slice CA3 | 50 µM, 10 min | baseline: baseline | spontaneous spike inter-event interval | 42.9 ± 4.6%
CCC(C(=O)O)C(=O)O | binding, MIDAS equilibrium dialysis LC-MS | A2AR-BRIL thermostabilized | concentration not given | baseline: no-protein control | log2 fold change | -0.327
c1ccc(-c2n[nH]cc2-c2ccnc3ccccc23)nc1 | kinase binding, competitor, MIB/MS competition, refers to: CAK1 | Candida albicans cell lysate | 1 µM | baseline: DMSO | log2 fold change | 1.31
C[C@H]1O[C@@H](O[C@H]2CC[C@@]3(C)[C@@H](CC[C@]4(C)[C@@H]3C=C[C@]35OC[C@@]6(CCC(C)(C)C[C@H]63)[C@@H](O)C[C@]54C)[C@]2(C)CO)[C@H](O)[C@@H](O[C@@H]2O[C@H](CO)[C@@H](O)[C@H](O)[C@H]2O)[C@H]1O | H&E staining | chronic-plus-binge ethanol mice | dose not given, low dose | – | adipose area | 21.3% and 23.2% and 20.6% and 23.7%

SMILES | test | test system | setting | how to read | endpoint | value
CCOCc1nc(O)c(-c2nnc(Cc3ccc(Cl)cn3)o2)c(O)c1-c1c(OC)cccc1OC | – | renal hypertensive rat | po, 0.1 mg/kg twice daily, peak exposure | baseline: vehicle | stroke volume change | 22%
CC(C)c1cc(C(=O)N2Cc3ccc(CN4CCN(C)CC4)cc3C2)c(O)cc1O | inhibitor | mouse, U87 xenograft | i.p., 10 mg/kg, 60 min p.i., with: [11C]HSP990 | – | brain tracer uptake | no effect
CC1(C)C(/C=C/C=C/C=C/C=C2\N(CCCCS(=O)(=O)O)c3ccc4ccccc4c3C2(C)C)=[N+](CCCCS(=O)(=O)[O-])c2ccc3ccccc3c21 | – | mouse MMTV-PyMT mammary tumour model | dose not given, 10 days post-surgery, after image-guided surgery | – | recurrent tumour volume | 34.2 mm³
COc1ccc(F)cc1C(=O)NCc1ccc(-c2nn([C@@H](C)C(F)(F)F)c(N)c2C(N)=O)cc1 | – | MCL patients, prior stem cell transplant | dose not given | – | response rate | 64%
Cn1ccc(=O)c(C(N)=O)c1 | binding, MIDAS equilibrium dialysis LC-MS | A2AR-BRIL thermostabilized | concentration not given | baseline: no-protein control | log2 fold change | -0.176
Cc1cc([C@H]2C[C@H]3[C@@H](CF)SC(N)=N[C@@]3(c3ccc(F)cc3F)CO2)on1 | refers to: Aβx-40 | Mus musculus wild-type, cerebrospinal fluid | subcutaneous, 30 mg/kg, 5 h | – | Aβ40 level | 0.52 ng/mL
C[C@@H](O)CCOC(=O)C[C@@H](C)O | refers to: C16:2 acylcarnitine | human, plasma | 60 min, log2-transformed values | – | metabolite level | -7.1 ± 0.72 µmol/L
NC(=O)NCCCC[C@H](N)C(=O)O | binding, MIDAS equilibrium dialysis LC-MS | A2AR-BRIL thermostabilized | concentration not given | baseline: no-protein control | log2 fold change | -0.0701
O=P(O)(O)C(Cl)(Cl)P(=O)(O)O | immunostaining | mouse, SAH model, meninges | dose not given, day 7 | baseline: total area | GFAP-positive area | 6.38%
COc1cccc2c1C(=O)c1c(O)c3c(c(O)c1C2=O)C[C@@](O)(C(=O)CO)C[C@@H]3O[C@H]1C[C@H](N)[C@H](O)[C@H](C)O1 | organoid viability, CellTiter-Glo 3D | sample B colorectal cancer organoid, human | 6 days | – | IC50 | 23.7 nM
COc1cc2nccc(Oc3ccc(NC(=O)c4cc5c(n(-c6ccccc6)c4=O)CCCC5=O)nc3)c2cc1OC | logrank | MOLM-13 luc/gfp xenograft, mice | diet, 0.013% in feed | baseline: treated over control | hazard ratio | 0.332
Cc1cc([C@H]2C[C@H]3[C@@H](C)SC(N)=N[C@@]3(c3ccc(F)cc3F)CO2)on1 | refers to: Aβx-40 | Mus musculus wild-type, cerebrospinal fluid | subcutaneous, 50 mg/kg, 18 h | – | Aβ40 level | 1.61 ng/mL
COc1ccc(-c2cncc(N[C@@H](C)c3cccc(NC(=O)c4cncc(C)c4)c3)n2)cc1OC | refers to: rno-miR-365-3p | rat SU5416/hypoxia model, lung | dose not given | baseline: SU5416/hypoxia vehicle | fold change | 0.835
CN(C(=O)n1cnc(-c2ccc[n+]([O-])c2)c1)C1CCCCC1 | – | mouse, brain | oral, 10 mg/kg, 8 h | – | anandamide level | 100 ± 9.3 pmol/g
CC(C)NCC(O)c1ccc(O)c(O)c1 (centres unmarked) | – | ventricular cardiomyocytes, C57BL/6 mouse | dose not given, 0.492 s | – | sarcomere length | 1.54 µm
Cc1coc([C@H]2C[C@H]3[C@@H](CF)SC(N)=N[C@@]3(c3ccc(F)cc3F)CO2)n1 | refers to: Aβx-40 | Mus musculus wild-type, cerebrospinal fluid | subcutaneous, 80 mg/kg, 9 h | – | Aβ40 level | 1.62 ng/mL
OC(CCN1CCCCC1)(c1ccccc1)C1CC2C=CC1C2 (centres unmarked) | resting-state EEG | healthy elderly humans | oral, 4 mg, eyes open, LS mean | – | EEG Beta2-power Pz-O2 | 0.9 µV²
N#Cc1ccc2c(c1)[C@H]1CCCN(C(=O)c3ccc4[nH]cnc4c3)[C@H]1C2 | – | T2DM patients with overweight or obesity, plasma | oral, 40 mg, day 15 (360 h), multiple dosing, mean | – | fasting plasma glucose | 152 mg/dL
O=C1Nc2cc3[nH]nc(-c4ccncc4)c3cc2CN1Cc1ccccc1 | RECIST v1.1 | human, relapsed or refractory advanced solid tumours | intravenous, 6.4 mg/kg | – | progressive disease, best response | 78%
C=CCn1c(=O)c2cnc(Nc3ccc(N4CCN(C)CC4)cc3)nc2n1-c1ccc2c(n1)[C@@](O)(CC)CC2 | – | T47D xenograft, BALB/c nude mice | oral, 80 mg/kg once daily x 28, day 27 | baseline: vehicle | tumour growth inhibition | 53.1%
